Experimental data pooled from the literature.
Protocols differ between the studies behind these lines.
Cell line: HEK293
Effect on: cell growth or viability

Compound | test | conditions | quantity | result
O=C(N/N=C/c1ccc([N+](=O)[O-])o1)c1cn(Cc2ccccc2)c2ccc(Oc3ccccc3)cc2c1=O | resazurin | 48 h | CC50 | > 20 µM
COc1cc(F)c(-c2c(Cl)nc(-c3cccs3)nc2NCC2(C)COC2)c(F)c1 | resazurin | 48 h | CC50 | ~50 µM
Nc1ccn([C@@H]2O[C@H](CO)[C@@H](O)C2(F)F)c(=O)n1 | MTT | 10 µg/mL, 48 h | viability | 17.4%
Cc1ccc(Cn2cc(C(=O)N/N=C/c3ccc([N+](=O)[O-])o3)c(=O)c3cc(Cl)ccc32)cc1 | resazurin | 48 h | CC50 | 1.9 µM
O=C(O)c1cc(-c2ccc(Br)cc2)nc2ccc(Cl)cc12 | MTT | 24 h | CC50 | > 200 µM
Cc1ccc(S(=O)(=O)[N](Nc2ccc([N+](=O)[O-])cc2[N+](=O)[O-])[Sn]([Cl])[Cl])cc1 | MTT | 125 µg/mL | viability | 80.7%
COc1cc2c(cc1O)[C@@H](Cc1ccc(O)cc1)[N+](C)(C)CC2 | MTT |  | CC50 | > 318 µM
Fc1cc(F)c(-c2c(Cl)nc(-c3cccs3)nc2NCc2ccccc2)c(F)c1 | resazurin | 48 h | CC50 | > 50 µM
CCCc1cc(=O)oc2cc(OCc3cc(=O)c(O)co3)ccc12 | CCK-8 | 108 µM, 24 h | viability | 83.9%
Fc1cc(F)c(-c2c(Cl)nc(-c3cccs3)nc2N2CCOC2)c(F)c1 | resazurin | 48 h | CC50 | 36.7 µM
Cc1ccc(S(=O)(=O)NNc2ccc([N+](=O)[O-])cc2[N+](=O)[O-])cc1 | MTT | 3.91 µg/mL | viability | 93.6%
CC1(CNc2nc(-c3cccs3)nc(Cl)c2-c2c(F)cc(C#N)cc2F)COC1 | resazurin | 48 h | CC50 | 23.7 µM
Cc1ccc(Cn2cc(C(=O)N/N=C/c3ccc([N+](=O)[O-])s3)c(=O)c3cc(Br)ccc32)cc1 | resazurin | 48 h | CC50 | > 20 µM
Fc1cc(F)c(-c2c(Cl)nc(-c3cccs3)nc2N2CCOCC2)c(F)c1 | resazurin | 48 h | CC50 | 22.7 µM
Cc1onc(-c2ccccc2)c1-c1ccc(S(N)(=O)=O)cc1 | MTT | 24 h | CC50 | > 200 µM

Some of these lines once more:
Compound | test | conditions | quantity | result
Cc1onc(-c2ccccc2)c1-c1ccc(S(N)(=O)=O)cc1 | MTT | 24 h | CC50 | > 200 µM
Cc1ccc(Cn2cc(C(=O)N/N=C/c3ccc([N+](=O)[O-])o3)c(=O)c3cc(Cl)ccc32)cc1 | resazurin | 48 h | CC50 | 1.9 µM
